Published values collected from several papers.
Every numbered part comes from another study and shows a few of its results, in no order. “And” joins repeats or separate records; there may be more than shown.

Sample 1
Organism: Sarcocystis neurona
Effect on: parasite growth
Concentration: 10 µM
Time: 96 h
Setting: second screen
Relative to: untreated
SMILES | log2 fold change
C/C=C1\[C@H]2C=C(C)C[C@]1(N)c1ccc(=O)[nH]c1C2 | 0.41
CCOc1cc(N)c(Cl)cc1C(=O)NCC1CN(Cc2ccc(F)cc2)CCO1 (centres unmarked) | -1.56
Cc1ccc(S(=O)(=O)NC(=O)NN2CCCCCC2)cc1 | 0.23
CCCC(CCC)C(=O)O | 0.22
COc1cc(C(=O)NC2CCCNC2)cc(OC)c1OC (centres unmarked) | 0.49
Cc1cc2c(s1)Nc1ccccc1N=C2N1CCN(C)CC1 | 0.3
Clc1ccccc1C(c1ccccc1)(c1ccccc1)n1ccnc1 | -1.09
CC1(C)O[C@@H]2[C@@H](CO[C@@]3(COS(N)(=O)=O)OC(C)(C)O[C@@H]23)O1 | 0.29

Sample 2
Target: HLA class I histocompatibility antigen, A alpha chain, allele A*80:01 (Homo sapiens, UniProt P04439)
Effect on: peptide-MHC binding
Form: peptide
Concentration: concentration not given
Molecule | binding
YEPEMQAQV | inactive
GTEKLTITY | inactive
VVRVRRELL | inactive
KTNDFAPAW | inactive
VKINIFPLY | inactive
YADGGQWYN | inactive
STGKSIKFK | inactive
GVEGIGLQY | inactive
LIMEFNSLL | inactive
IGKMNKHYK | inactive
IRKPKHLYV | inactive
SSRGYSAIW | inactive
CSDSDGLAP | inactive
ELRQLAQSL | inactive
LYAVTTAVL | inactive
AARISSCLK | inactive
NTDIKTLKF | inactive
QIQAGNFHW | inactive

Sample 3
Target: DNA polymerase theta, ATPase domain (POLQ, Homo sapiens, UniProt O75417)
UniProt O75417, sequence (whole entry, unmodified, looked up): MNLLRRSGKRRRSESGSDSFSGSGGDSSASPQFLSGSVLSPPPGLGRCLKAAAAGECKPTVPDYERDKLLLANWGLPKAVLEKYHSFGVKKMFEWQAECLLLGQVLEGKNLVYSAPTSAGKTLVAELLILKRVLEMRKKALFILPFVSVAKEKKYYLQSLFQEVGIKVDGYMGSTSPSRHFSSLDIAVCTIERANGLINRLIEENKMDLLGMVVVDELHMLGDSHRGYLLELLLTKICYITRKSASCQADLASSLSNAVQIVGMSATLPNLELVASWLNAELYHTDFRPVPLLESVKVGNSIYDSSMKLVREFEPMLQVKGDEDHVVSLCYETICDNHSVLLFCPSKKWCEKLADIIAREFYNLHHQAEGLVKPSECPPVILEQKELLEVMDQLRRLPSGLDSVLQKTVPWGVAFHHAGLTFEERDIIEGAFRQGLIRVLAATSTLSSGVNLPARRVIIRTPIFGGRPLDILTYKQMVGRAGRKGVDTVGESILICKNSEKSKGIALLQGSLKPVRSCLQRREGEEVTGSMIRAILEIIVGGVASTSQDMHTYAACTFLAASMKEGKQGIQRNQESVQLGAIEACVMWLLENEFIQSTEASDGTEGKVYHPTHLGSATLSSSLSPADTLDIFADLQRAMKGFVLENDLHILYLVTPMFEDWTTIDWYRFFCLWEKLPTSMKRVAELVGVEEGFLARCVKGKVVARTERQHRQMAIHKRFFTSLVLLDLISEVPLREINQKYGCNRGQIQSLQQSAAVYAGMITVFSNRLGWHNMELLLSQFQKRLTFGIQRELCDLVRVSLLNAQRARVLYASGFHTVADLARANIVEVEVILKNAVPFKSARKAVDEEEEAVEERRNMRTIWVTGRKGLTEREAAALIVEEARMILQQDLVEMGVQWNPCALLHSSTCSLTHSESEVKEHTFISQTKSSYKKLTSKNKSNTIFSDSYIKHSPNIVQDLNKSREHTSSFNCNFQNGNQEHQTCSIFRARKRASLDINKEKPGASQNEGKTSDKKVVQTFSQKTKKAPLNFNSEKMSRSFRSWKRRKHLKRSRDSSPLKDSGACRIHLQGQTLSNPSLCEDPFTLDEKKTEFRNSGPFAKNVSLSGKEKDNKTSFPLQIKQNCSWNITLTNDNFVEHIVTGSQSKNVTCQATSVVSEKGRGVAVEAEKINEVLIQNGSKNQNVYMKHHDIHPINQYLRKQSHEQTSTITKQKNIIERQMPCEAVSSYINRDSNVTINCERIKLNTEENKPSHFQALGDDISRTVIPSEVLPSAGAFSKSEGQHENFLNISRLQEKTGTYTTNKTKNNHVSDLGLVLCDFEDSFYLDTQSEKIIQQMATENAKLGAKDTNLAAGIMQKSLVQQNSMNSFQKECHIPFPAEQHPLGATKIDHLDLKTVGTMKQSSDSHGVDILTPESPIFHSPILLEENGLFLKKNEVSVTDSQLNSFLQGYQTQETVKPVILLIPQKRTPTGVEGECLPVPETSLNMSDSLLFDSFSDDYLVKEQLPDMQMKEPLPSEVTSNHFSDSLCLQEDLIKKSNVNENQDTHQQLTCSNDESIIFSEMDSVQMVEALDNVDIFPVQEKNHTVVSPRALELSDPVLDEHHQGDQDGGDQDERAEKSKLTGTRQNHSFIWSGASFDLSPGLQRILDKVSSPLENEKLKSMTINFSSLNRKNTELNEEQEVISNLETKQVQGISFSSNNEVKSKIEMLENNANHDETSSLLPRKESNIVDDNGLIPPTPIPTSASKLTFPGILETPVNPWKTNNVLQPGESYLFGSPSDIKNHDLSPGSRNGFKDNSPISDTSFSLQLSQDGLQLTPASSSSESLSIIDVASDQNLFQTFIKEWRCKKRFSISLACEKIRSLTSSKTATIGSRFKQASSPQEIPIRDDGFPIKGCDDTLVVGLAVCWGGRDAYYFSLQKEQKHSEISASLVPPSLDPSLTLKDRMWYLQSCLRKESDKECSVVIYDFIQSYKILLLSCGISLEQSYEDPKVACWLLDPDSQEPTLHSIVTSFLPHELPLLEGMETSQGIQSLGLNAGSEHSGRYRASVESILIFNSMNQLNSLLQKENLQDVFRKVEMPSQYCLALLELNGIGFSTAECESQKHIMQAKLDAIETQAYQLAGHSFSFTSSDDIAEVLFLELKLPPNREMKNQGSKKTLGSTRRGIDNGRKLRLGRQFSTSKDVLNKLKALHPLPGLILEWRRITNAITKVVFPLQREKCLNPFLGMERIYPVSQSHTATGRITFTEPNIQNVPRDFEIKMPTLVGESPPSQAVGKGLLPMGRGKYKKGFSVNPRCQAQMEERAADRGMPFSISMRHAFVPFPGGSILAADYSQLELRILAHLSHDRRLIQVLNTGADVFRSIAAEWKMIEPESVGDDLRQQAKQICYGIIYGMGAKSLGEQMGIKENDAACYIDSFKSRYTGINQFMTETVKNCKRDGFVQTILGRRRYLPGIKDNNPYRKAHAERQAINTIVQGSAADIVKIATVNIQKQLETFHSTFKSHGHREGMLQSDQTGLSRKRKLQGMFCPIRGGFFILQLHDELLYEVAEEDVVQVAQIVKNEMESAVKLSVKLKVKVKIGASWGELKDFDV
Effect on: enzyme activity
Action: inhibitor
Concentration: 77 µM
Relative to: untreated
Compound | remaining activity
Cc1cc(NC(=O)C2=C(O)c3ccccc3S(=O)(=O)N2C)no1 | 97%
O=Nc1c(-c2c(O)[nH]c3ccccc23)[nH]c2ccccc12 | 112% and 95%
CCN(CC)CCCCN1c2ccccc2Oc2ccc(Cl)cc21 | 88.3%
Nc1ncnc2c1c(I)cn2[C@@H]1O[C@H](CO)[C@@H](O)[C@H]1O | 94.1%
C#C[C@]1(OC(C)=O)CC[C@H]2[C@@H]3CCC4=C[C@@H](OC(C)=O)CC[C@@H]4[C@H]3CC[C@@]21C | 101% and 100%
CC(C)(C#N)c1cc(Cn2cncn2)cc(C(C)(C)C#N)c1 | 102%
NC(N)=NC(N)=Nc1ccccc1 | 99.6%
CC(N)C(=O)OC(C)(C)Cc1ccc(Cl)cc1 (racemic) | 101%

Sample 4
Target: Sodium-dependent serotonin transporter (SLC6A4, Homo sapiens, UniProt P31645)
Effect on: binding
Technique: radioligand binding
Concentration: 10 µM
Structure (SMILES) | inhibition [%]
C[C@@H]1CN(c2cc(-c3nn(C)c4ccc(OC5(C)CC5)cc34)ncn2)C[C@H](C)O1 | -3.49
O=C(Nc1cnc(Oc2ccc(F)cc2)nc1)N1CCc2ncccc2[C@@H]1c1ccc(F)cc1 | 25.5
CN1C(=O)[C@@H](N2CCc3cn(Cc4ccccc4)nc3C2=O)COc2ccccc21 | 5.99
COc1cccc(CNC(=O)c2nc3scc(COCc4ccc(C(=O)O)cc4)c3c(=O)[nH]2)c1 | -3.64
COc1nc2ccc([C@@](O)(c3ccccc3)C3CCN(C(C)=O)CC3)cc2c(Cl)c1Cc1ccc(-n2cccn2)cc1 | 5.62
O=C(Nc1cccnn1)N1CC(CC=Cc2cncc(Oc3ccc(C(F)(F)F)cn3)n2)C1 | 32.7
CNC(=O)Nc1ccc2c(c1)[C@]1(CC2)OC(=O)N(CC(=O)N(Cc2ccc(F)cc2)[C@@H](C)C(F)(F)F)C1=O | 31

Excerpt of the above (sample 3):
Compound | remaining activity
Cc1cc(NC(=O)C2=C(O)c3ccccc3S(=O)(=O)N2C)no1 | 97%
O=Nc1c(-c2c(O)[nH]c3ccccc23)[nH]c2ccccc12 | 112% and 95%
CCN(CC)CCCCN1c2ccccc2Oc2ccc(Cl)cc21 | 88.3%
